Assay results collected from several papers.
Organism: Acinetobacter baumannii

Structure (SMILES)	test	system	conditions	MIC
CCCS[C@H]1[C@H](O)[C@@H](N)[C@@H](O[C@H]2[C@H](O[C@@H]3O[C@H](CO)[C@@H](O[C@H]4O[C@@H](CN)[C@@H](O)[C@H](O)[C@H]4N)[C@H]3O)[C@@H](O)[C@H](N)C[C@@H]2N)O[C@@H]1CO		reference strain		8 µg/mL
CC(C)C[C@H](NC(=O)[C@H](CC(N)=O)NC(=O)[C@H](CCCNC(=N)N)NC(=O)[C@@H](CC(C)C)NC(=O)[C@H](Cc1ccc2ccccc2c1)NC(=O)[C@H](CC(=O)O)NC(=O)[C@H](CCCCN)NC(=O)[C@@H](CC(C)C)NC(=O)[C@H](CCCNC(=N)N)NC(=O)[C@H](CCC(N)=O)NC(=O)[C@@H](NC(=O)[C@@H](CC(C)C)NC(=O)[C@H](CCCNC(=N)N)NC(=O)[C@H](CCCCN)NC(=O)[C@H](Cc1ccccc1)NC(=O)CN)C(C)C)C(=O)N[C@H](C(N)=O)C(C)C	broth microdilution	B2367-12		3.1 µM
c1ccc(CN2CCOCCOCCN(CCCCCCCCCCCCCCN3CCOCCOCCN(CCCCCCCCCCCCCCN4CCOCCOCCN(Cc5ccccc5)CCOCCOCC4)CCOCCOCC3)CCOCCOCC2)cc1		fluoroquinolone-resistant		3 µM
Cc1ccc(-c2nc3ccc(-c4c[nH]c(N)n4)cc3[nH]2)cc1		ATCC 19606	compound alone	≥ 200 µM
CC(C)C[C@@H](NC(=O)[C@@H](CC(C)C)NC(=O)[C@@H](CCCCN)NC(=O)[C@@H](CCCCNC(=O)[C@@H](CC(C)C)NC(=O)[C@@H](CC(C)C)NC(=O)[C@@H](CCCCNC(=O)[C@@H](CC(C)C)NC(=O)[C@@H](CCCCN)NC(=O)[C@@H](CCCCNC(=O)[C@@H](CC(C)C)NC(=O)[C@H](N)CCCCN)NC(=O)[C@@H](CC(C)C)NC(=O)[C@H](N)CCCCN)NC(=O)[C@@H](CC(C)C)NC(=O)[C@@H](CCCCN)NC(=O)[C@@H](CCCCNC(=O)[C@@H](CC(C)C)NC(=O)[C@H](N)CCCCN)NC(=O)[C@@H](CC(C)C)NC(=O)[C@H](N)CCCCN)NC(=O)[C@@H](CC(C)C)NC(=O)[C@@H](CC(C)C)NC(=O)[C@@H](CCCCNC(=O)[C@@H](CC(C)C)NC(=O)[C@@H](CCCCN)NC(=O)[C@@H](CCCCNC(=O)[C@@H](CC(C)C)NC(=O)[C@H](N)CCCCN)NC(=O)[C@@H](CC(C)C)NC(=O)[C@H](N)CCCCN)NC(=O)[C@@H](CC(C)C)NC(=O)[C@@H](CCCCN)NC(=O)[C@@H](CCCCNC(=O)[C@@H](CC(C)C)NC(=O)[C@H](N)CCCCN)NC(=O)[C@@H](CC(C)C)NC(=O)[C@H](N)CCCCN)C(N)=O	broth microdilution	ATCC 19606	37 °C	2 µg/mL
CC1(C)S[C@@H]2[C@H](NC(=O)[C@H](NC(=O)C3=C(O)C(c4ccccc4F)NC3=O)c3ccccc3)C(=O)N2[C@H]1C(=O)O (stereo partly shown)	microbial growth, broth dilution	ATCC19606		50 µg/mL
NC[C@H]1O[C@H](O[C@H]2[C@H](OCCCCCCCCCCCCn3cc(CNc4nc(NCc5cn(CCCCCCCCCCCCO[C@@H]6[C@@H](O)[C@H](N)C[C@H](N)[C@H]6O[C@H]6O[C@H](CN)[C@@H](O)C[C@H]6N)nn5)nc(NCc5cn(CCCCCCCCCCCCO[C@@H]6[C@@H](O)[C@H](N)C[C@H](N)[C@H]6O[C@H]6O[C@H](CN)[C@@H](O)C[C@H]6N)nn5)n4)nn3)[C@@H](O)[C@H](N)C[C@@H]2N)[C@H](N)C[C@@H]1O	microbial growth, broth dilution	ATCC17978		32 µg/mL
CC(C)C[C@@H]1NC(=O)[C@@H](CC(C)C)NC(=O)[C@H](CCN)NC(=O)[C@@H](NC(=O)[C@H](CCN)NC(=O)[C@@H](N)[C@@H](C)O)CCNC(=O)[C@H]([C@@H](C)O)NC(=O)[C@H](CCN)NC(=O)[C@H](CCN)NC1=O	broth microdilution	ATCC 17978, CAMHB with polysorbate-80	16 h	> 64 µg/mL
COc1ccc2c(c1)[O][Au-]13[O]c4ccc5ccc(OC)cc5c4C=[N+]1C1CCCCC1[N+]3=C2.F[P-](F)(F)(F)(F)F (stereo not shown)	bacterial growth, broth microdilution	carbapenem-resistant clinical isolate	24 h	> 20 µM
C/C(=N\NC(=N)N)c1nnn(-c2ccc(S(=O)(=O)NCC(C)C)cc2)c1C	microbial growth, broth dilution	AB5075		8 µg/mL

Repeated from above:
Structure (SMILES)	test	system	conditions	MIC
COc1ccc2c(c1)[O][Au-]13[O]c4ccc5ccc(OC)cc5c4C=[N+]1C1CCCCC1[N+]3=C2.F[P-](F)(F)(F)(F)F (stereo not shown)	bacterial growth, broth microdilution	carbapenem-resistant clinical isolate	24 h	> 20 µM
